Assay results pooled from the literature.
Numbers after ± are the reported error.

SMILES = CC[C@H](C)[C@H](NC(=O)[C@H](C)NC(=O)[C@@H](NC(=O)[C@H](CC(=O)O)NC(=O)[C@H](CCCCN)NC(=O)[C@H](CO)NC(=O)[C@@H](NC(=O)[C@H](CC(N)=O)NC(=O)[C@H](C)NC(=O)[C@@H](NC(=O)[C@H](CCC(=O)O)NC(=O)[C@H](CCCCN)NC(=O)[C@@H](NC(=O)[C@@H](NC(=O)[C@H](Cc1c[nH]cn1)NC(=O)[C@H](CCCCN)NC(=O)[C@@H](NC(=O)[C@H](CCCCN)NC(=O)[C@H](CCCCN)NC(=O)[C@@H](NC(=O)[C@H](CC(C)C)NC(=O)[C@H](CCCCN)NC(=O)[C@H](CC(N)=O)NC(=O)[C@H](Cc1ccccc1)NC(=O)[C@H](CCCNC(=N)N)NC(=O)[C@H](CCCCN)NC(=O)[C@H](CCCNC(=N)N)NC(=O)[C@H](Cc1ccccc1)NC(=O)CN)C(C)C)C(C)C)[C@@H](C)O)[C@@H](C)CC)[C@@H](C)O)C(C)C)C(C)C)C(=O)N[C@H](C(=O)N[C@@H](C)C(=O)NCC(=O)N[C@@H](CO)C(=O)NCC(=O)N[C@H](C(=O)N[C@@H](C)C(=O)N[C@H](C(=O)NCC(=O)N[C@@H](C)C(=O)N[C@@H](C)C(=O)N[C@@H](CCSC)C(N)=O)C(C)C)C(C)C)C(C)C; target or system = Proteus mirabilis; test system = DSM 4479, CAMHB; measurement = MIC; result = > 1020 µg/mL
SMILES = CCCCCCCC(=O)NCCCC[C@H](NC(=O)CCCCCCC)C(=O)N[C@@H](CCCCNC(=O)CCCCCCC)C(=O)NCC(=O)NCC(=O)NCC(=O)N[C@@H](CS)C(=O)N[C@@H](CCCNC(=N)N)C(=O)N[C@@H](CCCCN)C(=O)N1CCC[C@H]1C(=O)N[C@@H](CS)C(=O)N[C@@H](CCCNC(=N)N)C(=O)N[C@@H](CCCCN)C(=O)N1CCC[C@H]1C(=O)N[C@@H](CS)C(=O)N[C@@H](CCCNC(=N)N)C(=O)N[C@@H](CCCCN)C(=O)N1CCC[C@H]1C(N)=O; target or system = Candida tropicalis; assay = broth microdilution; test system = CGMCC 2.197, RPMI-1640; setting = 48 h, 30 °C; measurement = MIC; result = 8 µM
SMILES = c1ccc(CCNC2CCCc3c2[nH]c2ccc(C4CCCCC4)cc32)cc1 (centres unmarked); target or system = Streptococcus pneumoniae; assay = broth microdilution; test system = serotype 19A 700678, supplemented C+Y medium; measurement = MIC; result = 1.3 µg/mL
SMILES = CC1(C)C(NC(=O)C(=NOC2(C(=O)O)CC2)c2csc(N)n2)C(=O)N1OS(=O)(=O)O (centres unmarked); target or system = Klebsiella pneumoniae; test system = ATCC 1706, ESBL and NDM; setting = compound alone; measurement = MIC; result = 2 µg/mL
SMILES = CC[C@H](C)[C@H](N)C(=O)N[C@@H](CCCNC(=N)N)C(=O)N[C@H](C(=O)N[C@@H](Cc1c[nH]c2ccccc12)C(=O)N[C@@H](Cc1ccccc1)C(=O)N[C@H](C(=O)N[C@@H](CCCCN)C(=O)N[C@H](C(=O)N[C@@H](CCCNC(=N)N)C(=O)N[C@@H](CCCCN)C(=O)N[C@@H](CCSC)C(=O)N[C@@H](CCCCN)C(=O)N[C@@H](C)C(=O)N[C@H](C(=O)N[C@@H](Cc1ccc(O)cc1)C(=O)N[C@@H](Cc1c[nH]cn1)C(N)=O)[C@@H](C)CC)C(C)C)[C@@H](C)CC)C(C)C; target or system = Salmonella typhimurium; assay = broth dilution; test system = SL1344; measurement = MIC; result = 100 µM
SMILES = CC[C@H](C)[C@@H]1NC(=O)[C@H](CCCNC(=N)N)NC(=O)[C@H]([C@@H](C)O)NC(=O)[C@H](C(C)C)NC(=O)[C@H](Cc2ccccc2)NC(=O)[C@H](C(C)C)NC(=O)[C@H](CCCNC(=N)N)NC(=O)[C@H](CCCNC(=N)N)NC(=O)[C@H](CCCNC(=N)N)NC(=O)[C@H](Cc2ccccc2)NC(=O)CNC(=O)[C@H](CCCCN)NC(=O)[C@@H](NC(=O)[C@H](CCCNC(=N)N)NC(=O)CNC(=O)CN)CSSC[C@@H](C(N)=O)NC1=O; target or system = Botrytis cinerea; assay = resazurin; test system = synthetic fungal medium; setting = added: CaCl2 2 mM; measurement = MIC; result = > 6 µM
SMILES = CC[C@H](C)[C@@H]1NC(=O)[C@H](CO)NC(=O)C(C)(CCCCN)NC(=O)[C@@H]2CSSC[C@@H](C(=O)N[C@@H](Cc3ccc(O)cc3)C(N)=O)NC(=O)[C@H](CCCCN)NC(=O)[C@@H]3CSSC[C@H](NC(=O)[C@H](CCCNC(=N)N)NC(=O)C(C)(CC(C)C)NC(=O)[C@H](CC(=O)O)NC(=O)[C@H](CC(=O)O)NC(=O)[C@H](CCC(=O)O)NC(=O)[C@H](CC(N)=O)NC(=O)[C@H](Cc4c[nH]c5ccccc45)NC(=O)[C@@H]4CCCN4C(=O)CNC(=O)[C@H](CC(N)=O)NC(=O)[C@@H](NC(=O)CNC(=O)[C@H](Cc4ccccc4)NC(=O)CN)CSSC[C@H](NC(=O)[C@H](Cc4ccc(O)cc4)NC(=O)CNC(=O)CNC(=O)[C@H](CCCCN)NC(=O)[C@H](Cc4ccc(O)cc4)NC(=O)CNC(=O)[C@H](CCCCN)NC1=O)C(=O)N[C@@H](C)C(=O)N[C@@H](CCCCN)C(=O)NCC(=O)NCC(=O)N[C@@H](Cc1ccccc1)C(=O)N[C@@H](C(C)C)C(=O)N3)C(=O)N[C@@H](Cc1c[nH]cn1)C(=O)NC(C)(C)C(=O)N[C@@H](Cc1c[nH]cn1)C(=O)N2 (some centres unmarked); target or system = Streptococcus pneumoniae; assay = broth microdilution; test system = BS-442; setting = 18 h; measurement = MIC; result = 0.5 µM
SMILES = CC(C)Oc1ccc(B(O)O)c(F)n1; target or system = Citrobacter freundii; assay = bacterial growth; test system = AmpC overproducer clinical isolate; setting = without cefotaxime; measurement = MIC; result = 2050 µg/mL
SMILES = CC[C@H](C)[C@H](NC(=O)[C@H](C)NC(=O)CNC(=O)[C@H](C)NC(=O)[C@H](CCCCN)NC(=O)[C@H](CO)NC(=O)[C@H](C)NC(=O)[C@H](CCSC)NC(=O)CN)C(=O)N[C@@H](C)C(=O)NCC(=O)N[C@@H](CCCCN)C(=O)N[C@H](C(=O)N[C@@H](C)C(=O)N[C@@H](CCCCN)C(=O)N[C@H](C(=O)N[C@@H](C)C(=O)N[C@@H](CC(C)C)C(=O)N[C@@H](CCCCN)C(=O)N[C@@H](C)C(=O)N[C@@H](CC(C)C)C(N)=O)C(C)C)[C@@H](C)CC; target or system = Escherichia coli; test system = CFT073 ampicillin-resistant; setting = 18 h, 37 °C, minimal salts medium; measurement = MIC; result = 2.5 µg/mL
SMILES = COc1ccc(C2=[N+]([O-])c3ccccc3N3CC(C)(C)CN=C23)cc1; target or system = Clostridioides difficile; measurement = MIC; result = 1 to 8 µg/mL
SMILES = OC(Cn1cncn1)(Cn1cncn1)c1ccc(F)cc1F; target or system = Saccharomyces cerevisiae; test system = S288c wild type; measurement = MIC; result = 64 µg/mL
SMILES = C=C1NC(=O)C2CSCC3NC(=O)C(CSC(C)C(NC(=S)C(Cc4cnc[nH]4)NC(=O)c4csc(C(C)NC(C)=O)n4)C(=O)N[C@H](CC(C)C(=O)NC(=O)CC(C(=O)O)NC(=O)C(C)NC3=O)C(=O)N2)NC(=O)[C@@H]2CCCN2C(=O)[C@@H](CC(C)C)NC1=O (some centres unmarked); target or system = Enterobacter aerogenes; test system = ATCC 13048; measurement = MIC; result = > 32 µg/mL
SMILES = C[N+]1=C2C(c3ccc(Cl)cc3)=[N+]([O-])c3ccccc3N2CCC1; target or system = Clostridioides difficile; measurement = MIC; result = 4 to 32 µg/mL
SMILES = CC[C@H](C)[C@H](N)C(=O)N[C@@H](CCCNC(=N)N)C(=O)N[C@H](C(=O)N[C@@H](Cc1c[nH]c2ccccc12)C(=O)N[C@@H](Cc1ccccc1)C(=O)N[C@H](C(=O)N[C@@H](CCCCN)C(=O)N[C@H](C(=O)N[C@@H](CCCNC(=N)N)C(=O)N[C@@H](CCCCN)C(=O)N[C@@H](CCSC)C(=O)N[C@@H](CCCCN)C(=O)N[C@@H](C)C(=O)N[C@H](C(=O)N[C@@H](Cc1ccc(O)cc1)C(=O)N[C@@H](Cc1c[nH]cn1)C(=O)N[C@H](C(N)=O)[C@@H](C)O)[C@@H](C)CC)C(C)C)[C@@H](C)CC)C(C)C; target or system = Enterobacter sp.; assay = broth dilution; test system = KCTC 2625; measurement = MIC; result = < 3.1 µM
SMILES = O=C1NC2(CC2)COc2ncc(F)cc2[C@H]2COCCN2c2ccn3ncc1c3n2; test system = Sprague-Dawley rat, male, blood; setting = oral, 2.5 mg/kg/day, 4 weeks, end of treatment, subacute toxicity; measurement = mean corpuscular haemoglobin; result = 20.2 ± 1.1 pg
SMILES = CC[C@H](C)[C@H](NC(=O)[C@H](Cc1c[nH]c2ccccc12)NC(=O)[C@H](Cc1ccc(O)cc1)NC(=O)[C@H](CCCCN)NC(=O)[C@H](CC(C)C)NC(=O)[C@H](CO)NC(=O)[C@@H](N)Cc1ccccc1)C(=O)N[C@@H](CCCNC(=N)N)C(=O)N[C@@H](Cc1ccc(O)cc1)C(=O)N[C@@H](CCCCN)C(=O)N[C@@H](CCCNC(=N)N)C(=O)N[C@@H](CCC(N)=O)C(=O)NCC(=O)N[C@@H](C)C(=O)N[C@@H](C)C(=O)N[C@@H](CCCNC(=N)N)C(=O)N[C@@H](Cc1ccccc1)C(N)=O; target or system = Salmonella typhimurium; assay = broth dilution; test system = SL1344; measurement = MIC; result = 25 µM
SMILES = [O-][N+]1=C(c2ccsc2)C2=NCCCN2c2ccccc21; target or system = Clostridioides difficile; measurement = MIC; result = 2 to 4 µg/mL
SMILES = CC[C@H](C)[C@H](NC(=O)[C@H](CCCCN)NC(=O)[C@H](CCCCN)NC(=O)[C@H](Cc1ccccc1)NC(=O)[C@H](Cc1ccccc1)NC(=O)[C@H](CCCCN)NC(=O)[C@H](CCCCN)NC(=O)[C@H](Cc1ccccc1)NC(=O)[C@H](CCCNC(=N)N)NC(=O)[C@@H](N)CCCCN)C(=O)N[C@@H](CCCCN)C(=O)N[C@@H](CCCCN)C(=O)N[C@@H](CO)C(=O)N[C@H](C(=O)N[C@@H](CCCCN)C(=O)N[C@@H](CCCCN)C(=O)N[C@@H](CCCNC(=N)N)C(=O)N[C@H](C(=O)N[C@@H](CCCCN)C(=O)N[C@@H](CCCCN)C(=O)N[C@@H](CC(C)C)C(=O)N[C@@H](Cc1ccccc1)C(=O)N[C@@H](CCCCN)C(=O)N[C@@H](CCCCN)C(=O)N1CCC[C@H]1C(=O)N[C@@H](CCCNC(=N)N)C(=O)N[C@H](C(=O)N[C@H](C(=O)N1CCC[C@H]1C(=O)N[C@H](C(=O)N[C@@H](CO)C(=O)N[C@H](C(=O)N1CCC[C@H]1C(=O)N[C@@H](Cc1ccccc1)C(=O)O)[C@@H](C)CC)[C@@H](C)CC)[C@@H](C)CC)C(C)C)C(C)C)C(C)C; target or system = Escherichia coli; test system = E24; setting = 20 h, added: 100 mM NaCl; measurement = MIC; result = 4 µg/mL
SMILES = CC[C@H](C)[C@H](NC(=O)[C@H](CCCNC(=N)N)NC(=O)[C@H](CO)NC(=O)[C@H](Cc1ccc(O)cc1)NC(=O)[C@@H](NC(=O)[C@@H](NC(=O)[C@H](C)NC(=O)CNC(=O)[C@H](CCCCN)NC(=O)[C@H](CCCCN)NC(=O)CCNC(=O)CCCCCNC(=O)[C@H](CCCNC(=N)N)NC(=O)CCCCCNC(=O)[C@H](CCCNC(=N)N)NC(=O)[C@H](CCCNC(=N)N)NC(=O)CCCCCNC(=O)[C@H](CCCNC(=N)N)NC(=O)[C@H](CCCNC(=N)N)NC(=O)CCCCCNC(=O)[C@H](CCCNC(=N)N)NC(=O)[C@H](CCCNC(=N)N)NC(=O)CCCCCNC(=O)[C@@H](N)CCCNC(=N)N)C(C)C)[C@@H](C)O)C(=O)N[C@@H](CO)C(=O)NCC(=O)N[C@@H](CCC(N)=O)C(=O)N[C@@H](Cc1ccc(O)cc1)C(=O)N[C@@H](CCCCN)C(=O)O; target or system = Escherichia coli; test system = ATCC 25922; setting = 1 h, 37 °C, after 50% fetal bovine serum; measurement = MIC; result = 24 µM
SMILES = CCCCCCCC(=O)NCCCC[C@H](NC(=O)CCCCCCC)C(=O)N[C@@H](CCCCNC(=O)CCCCCCC)C(=O)NCC(=O)NCC(=O)NCC(=O)N[C@@H](CS)C(=O)N[C@@H](CCCNC(=N)N)C(=O)N[C@@H](CCCCN)C(=O)N1CCC[C@H]1C(N)=O; target or system = Candida tropicalis; assay = broth microdilution; test system = CGMCC 2.197, RPMI-1640; setting = 48 h, 30 °C; measurement = MIC; result = > 128 µM
